Experimental data collected from several papers.
Lines come from different studies, so protocols differ. Several values in a cell are separate wells, animals, samples, runs or records.
VHL with elongin B/C: von Hippel-Lindau disease tumor suppressor, with elongin B/C (VHL, Homo sapiens, UniProt P40337)
Sequence of UniProt P40337 (whole entry, looked up): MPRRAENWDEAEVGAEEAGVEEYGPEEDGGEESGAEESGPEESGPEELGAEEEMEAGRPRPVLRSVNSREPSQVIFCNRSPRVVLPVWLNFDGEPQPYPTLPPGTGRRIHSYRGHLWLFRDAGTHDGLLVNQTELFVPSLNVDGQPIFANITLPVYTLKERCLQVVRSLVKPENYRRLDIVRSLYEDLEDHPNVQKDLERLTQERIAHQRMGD
IFIT1: Antiviral innate immune response effector IFIT1 (IFIT1, Homo sapiens, UniProt P09914)
Sequence of UniProt P09914 (whole entry, looked up): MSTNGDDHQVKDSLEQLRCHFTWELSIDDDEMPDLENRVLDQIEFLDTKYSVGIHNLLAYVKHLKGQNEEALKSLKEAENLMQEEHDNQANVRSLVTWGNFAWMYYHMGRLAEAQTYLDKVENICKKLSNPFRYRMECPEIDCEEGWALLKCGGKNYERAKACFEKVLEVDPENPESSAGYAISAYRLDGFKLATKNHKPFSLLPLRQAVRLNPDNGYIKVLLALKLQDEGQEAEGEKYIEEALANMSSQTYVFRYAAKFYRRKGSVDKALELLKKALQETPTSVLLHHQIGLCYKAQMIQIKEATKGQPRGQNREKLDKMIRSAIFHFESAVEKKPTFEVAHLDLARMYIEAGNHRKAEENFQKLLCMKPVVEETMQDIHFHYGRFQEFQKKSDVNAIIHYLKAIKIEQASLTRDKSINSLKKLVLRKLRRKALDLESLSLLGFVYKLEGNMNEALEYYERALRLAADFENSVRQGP
Sequence of UniProt Q9SZU7 (whole entry, unmodified, looked up): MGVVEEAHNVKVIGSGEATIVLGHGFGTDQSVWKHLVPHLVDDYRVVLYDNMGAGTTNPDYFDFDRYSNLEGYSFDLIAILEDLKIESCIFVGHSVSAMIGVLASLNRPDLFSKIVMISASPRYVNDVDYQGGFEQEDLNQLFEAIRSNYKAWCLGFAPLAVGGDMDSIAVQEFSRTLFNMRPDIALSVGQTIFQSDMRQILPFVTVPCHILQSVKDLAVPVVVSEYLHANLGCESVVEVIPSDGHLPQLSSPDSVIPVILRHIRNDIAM
Sequence of UniProt Q99572 (whole entry, unmodified, looked up): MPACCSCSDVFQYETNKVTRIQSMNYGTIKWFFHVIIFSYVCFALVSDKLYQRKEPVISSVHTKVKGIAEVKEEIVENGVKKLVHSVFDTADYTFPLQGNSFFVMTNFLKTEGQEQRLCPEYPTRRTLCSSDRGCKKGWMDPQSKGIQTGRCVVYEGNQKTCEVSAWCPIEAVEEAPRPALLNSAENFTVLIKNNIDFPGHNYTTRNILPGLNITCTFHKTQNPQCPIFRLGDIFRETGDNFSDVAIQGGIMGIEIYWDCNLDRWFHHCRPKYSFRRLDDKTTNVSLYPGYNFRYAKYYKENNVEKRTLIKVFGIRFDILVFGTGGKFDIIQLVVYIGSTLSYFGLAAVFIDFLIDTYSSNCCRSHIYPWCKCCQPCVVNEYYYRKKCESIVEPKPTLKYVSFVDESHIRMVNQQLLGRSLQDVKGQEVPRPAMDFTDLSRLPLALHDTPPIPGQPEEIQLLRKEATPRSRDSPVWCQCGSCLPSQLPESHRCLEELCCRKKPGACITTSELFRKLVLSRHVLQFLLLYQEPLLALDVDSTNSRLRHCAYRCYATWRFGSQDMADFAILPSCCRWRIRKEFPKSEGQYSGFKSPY
Sequence of UniProt Q96CN7 (whole entry, looked up): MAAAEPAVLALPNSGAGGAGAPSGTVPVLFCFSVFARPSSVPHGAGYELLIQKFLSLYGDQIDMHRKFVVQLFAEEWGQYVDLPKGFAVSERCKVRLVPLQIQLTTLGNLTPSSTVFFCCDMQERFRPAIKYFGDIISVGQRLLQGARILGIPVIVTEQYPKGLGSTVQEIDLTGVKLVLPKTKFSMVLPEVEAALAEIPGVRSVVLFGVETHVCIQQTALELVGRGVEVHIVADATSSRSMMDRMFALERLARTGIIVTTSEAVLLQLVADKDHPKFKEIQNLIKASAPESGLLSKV
Sequence of UniProt P02754 (whole entry, unmodified, looked up): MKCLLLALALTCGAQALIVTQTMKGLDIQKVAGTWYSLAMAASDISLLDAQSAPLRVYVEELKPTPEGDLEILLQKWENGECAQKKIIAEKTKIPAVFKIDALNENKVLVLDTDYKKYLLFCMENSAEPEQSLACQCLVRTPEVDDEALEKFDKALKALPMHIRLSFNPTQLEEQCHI
Sequence of UniProt Q9SCZ4 (whole entry, unmodified, looked up): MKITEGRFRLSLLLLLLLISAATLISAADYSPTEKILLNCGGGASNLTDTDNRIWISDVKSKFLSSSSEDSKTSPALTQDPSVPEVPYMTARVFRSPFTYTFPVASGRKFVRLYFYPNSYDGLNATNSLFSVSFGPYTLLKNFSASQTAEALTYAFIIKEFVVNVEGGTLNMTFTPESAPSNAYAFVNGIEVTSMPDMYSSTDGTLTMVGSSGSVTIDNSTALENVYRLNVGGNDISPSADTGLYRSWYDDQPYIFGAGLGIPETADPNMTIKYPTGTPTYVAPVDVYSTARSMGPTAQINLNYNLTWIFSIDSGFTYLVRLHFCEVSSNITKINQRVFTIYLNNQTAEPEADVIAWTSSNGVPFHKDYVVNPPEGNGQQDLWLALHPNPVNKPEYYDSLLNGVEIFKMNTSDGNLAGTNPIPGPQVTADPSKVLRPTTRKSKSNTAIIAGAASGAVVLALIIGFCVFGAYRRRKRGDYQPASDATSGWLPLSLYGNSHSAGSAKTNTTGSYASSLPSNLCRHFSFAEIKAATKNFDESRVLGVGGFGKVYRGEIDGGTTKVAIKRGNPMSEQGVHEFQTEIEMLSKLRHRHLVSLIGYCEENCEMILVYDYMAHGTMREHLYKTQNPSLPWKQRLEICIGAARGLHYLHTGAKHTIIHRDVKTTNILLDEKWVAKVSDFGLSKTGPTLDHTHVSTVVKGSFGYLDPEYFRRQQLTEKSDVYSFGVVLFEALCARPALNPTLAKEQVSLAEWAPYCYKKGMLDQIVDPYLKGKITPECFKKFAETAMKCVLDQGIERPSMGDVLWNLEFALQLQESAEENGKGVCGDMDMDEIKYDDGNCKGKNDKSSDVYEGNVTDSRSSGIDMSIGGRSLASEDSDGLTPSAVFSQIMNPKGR
Sequence of UniProt P25440 (whole entry, looked up): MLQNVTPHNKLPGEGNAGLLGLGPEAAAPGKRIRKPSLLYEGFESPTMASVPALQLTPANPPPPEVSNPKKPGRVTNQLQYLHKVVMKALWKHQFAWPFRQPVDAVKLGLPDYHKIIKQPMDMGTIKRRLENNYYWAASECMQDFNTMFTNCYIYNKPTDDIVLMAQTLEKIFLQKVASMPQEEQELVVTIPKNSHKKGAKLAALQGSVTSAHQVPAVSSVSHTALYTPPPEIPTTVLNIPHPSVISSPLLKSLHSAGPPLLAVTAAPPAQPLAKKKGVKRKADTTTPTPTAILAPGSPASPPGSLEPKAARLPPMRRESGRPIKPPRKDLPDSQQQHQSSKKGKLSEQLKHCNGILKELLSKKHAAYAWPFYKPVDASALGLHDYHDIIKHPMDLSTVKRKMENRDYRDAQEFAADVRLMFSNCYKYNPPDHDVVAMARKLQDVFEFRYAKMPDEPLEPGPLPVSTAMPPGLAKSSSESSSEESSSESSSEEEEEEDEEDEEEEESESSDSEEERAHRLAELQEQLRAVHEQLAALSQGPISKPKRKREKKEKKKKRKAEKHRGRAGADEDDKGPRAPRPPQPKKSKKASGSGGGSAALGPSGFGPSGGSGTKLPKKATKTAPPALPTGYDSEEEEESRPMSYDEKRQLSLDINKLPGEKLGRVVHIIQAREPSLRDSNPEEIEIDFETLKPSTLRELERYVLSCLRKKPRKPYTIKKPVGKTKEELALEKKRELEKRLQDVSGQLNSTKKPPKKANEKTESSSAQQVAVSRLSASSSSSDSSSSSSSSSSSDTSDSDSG
Sequence of UniProt P43166 (whole entry, looked up): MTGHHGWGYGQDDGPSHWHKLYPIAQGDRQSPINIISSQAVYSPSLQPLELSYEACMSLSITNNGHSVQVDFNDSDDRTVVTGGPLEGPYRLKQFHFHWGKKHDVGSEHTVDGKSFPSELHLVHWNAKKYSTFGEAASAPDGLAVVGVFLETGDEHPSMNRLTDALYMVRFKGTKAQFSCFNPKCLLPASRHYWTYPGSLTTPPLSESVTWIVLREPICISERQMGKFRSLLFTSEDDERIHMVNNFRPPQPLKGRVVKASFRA
Sequence of UniProt Q13011 (whole entry, looked up): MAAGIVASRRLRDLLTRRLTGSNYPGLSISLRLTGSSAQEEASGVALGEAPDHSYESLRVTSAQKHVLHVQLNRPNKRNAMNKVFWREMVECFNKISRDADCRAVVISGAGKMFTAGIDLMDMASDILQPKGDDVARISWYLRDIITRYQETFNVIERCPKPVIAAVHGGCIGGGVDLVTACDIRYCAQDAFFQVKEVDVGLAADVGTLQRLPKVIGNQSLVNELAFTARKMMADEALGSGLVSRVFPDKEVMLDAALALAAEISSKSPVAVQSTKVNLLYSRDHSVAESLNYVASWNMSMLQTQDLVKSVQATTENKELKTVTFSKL

Compound	target	test	test system	conditions	Kd
Cc1ncsc1-c1ccc2c(c1)OCCOCCOC[C@@H](NC(=O)C[C@@H]1N=C(c3ccc(Cl)cc3)c3c(sc(C)c3C)-n3c(C)nnc31)COCCOCCOCC(=O)N[C@@H](C(C)(C)C)C(=O)N1C[C@H](O)C[C@H]1C(=O)NC2	von Hippel-Lindau disease tumor suppressor, with Elongin B/C (VHL, Homo sapiens, UniProt P40337)				0.065 µM
CC(/C=C/C(=O)NO)=C\[C@@H](C)C(=O)c1ccc(N(C)C)cc1	Isochorismatase domain-containing protein 1 (Homo sapiens, UniProt Q96CN7)	inhibitor, competition pulldown	SW620 and MV4-11 lysate	1 h	> 30.2 µM
C#CCN1CCN(c2nc(N3CCC(CCOc4cc(-c5scnc5C)ccc4CNC(=O)[C@@H]4C[C@@H](O)CN4C(=O)[C@@H](NC(=O)C4(F)CC4)C(C)(C)C)CC3)nc(N3CCN(C(=O)C4CC4)C3)n2)CC1=O	VHL with elongin B/C	binary binding, SPR			0.013 µM
CC(=O)N1c2ccc(-c3ccc(CNC(=O)c4cn5cc(-c6cnc(N)nc6)nc(N6CCOCC6)c5n4)cc3)cc2CC[C@@H]1C	Bromodomain-containing protein 2, BD1 (BRD2, Homo sapiens, UniProt P25440)	binding, competition with immobilised ligand			0.12 µM
CC(C)C[C@@H]1NC(=O)[C@H](CC(C)C)NC(=O)[C@H](CC(N)=O)NC(=O)[C@@H]2CCCN2C(=O)[C@H](CC(C)C)NC(=O)[C@H](CC(C)C)NC(=O)[C@H](CC(C)C)NC(=O)[C@@H](NC(=O)[C@H](CO)NC(=O)[C@H](CC(N)=O)NC(=O)[C@@H](N)C(C)C)CSSC[C@@H](C(=O)NCC(=O)N[C@@H](CC(=O)O)C(=O)N[C@@H](CC(=O)O)C(=O)N[C@@H](CCCCNC(=O)CCCC[C@@H]2SC[C@@H]3NC(=O)N[C@@H]32)C(=O)NCCCCCC(=O)NCCCCCC(=O)NCCCCCC(=O)NCCCCCC(=O)NCCCCCC(=O)N[C@@H](CCCCNC(=O)CCCCc2cn(CCCC[C@H](NC(=O)N[C@@H](CCC(=O)O)C(=O)O)C(=O)O)nn2)C(=O)NCC(N)=O)NC(=O)CNC1=O	human FcγRI	bead phagocytosis, ternary complex model fit		with: PSMA 80 pM, FcγRI 800 pM	0.3 µM
NC(=O)c1ccc[n+]([C@@H]2O[C@H](COP(=O)(O)OP(=O)([O-])OC[C@H]3O[C@@H](n4cnc5c(N)ncnc54)[C@H](O)[C@@H]3OP(=O)(O)OC[C@H]3O[C@@H](n4cnc5c(=O)[nH]c(N)nc54)[C@H](O)[C@@H]3O)[C@@H](O)[C@H]2O)c1	IFIT1	binding, microscale thermophoresis		pH 7.5, 70 nt capped RNA	1 µM
COC(=O)CCCNC(=O)c1cc(S(N)(=O)=O)c(Cl)cc1NC1CCCCC1	CA7 (Homo sapiens, UniProt P43166)			pH 7	4 µM
CNc1ncnc2c1ncn2[C@@H]1O[C@H](COP(=O)(O)OP(=O)([O-])OP(=O)(O)OC[C@H]2O[C@@H](n3c[n+](C)c4c(O)nc(N)nc43)[C@H](O)[C@@H]2O)[C@@H](OP(=O)(O)OC[C@H]2O[C@@H](n3cnc4c(=O)[nH]c(N)nc43)[C@H](O)[C@@H]2O)[C@H]1O	IFIT1	binding, microscale thermophoresis		pH 7.5	50 µM
NCCCC[C@H](NC(=O)[C@H](C/C=C\C[C@H](NC(=O)[C@@H]1CCCN1)C(=O)N[C@@H](CCCCN)C(=O)NCCCN)NC(=O)[C@@H]1CCCN1)C(=O)NCCCN	CUG–CAG duplex RNA	SPR			0.348 µM
C[n+]1cn([C@@H]2O[C@H](COP(=O)(O)OP(=O)([O-])OP(=O)(O)OC[C@H]3O[C@@H](n4cnc5c(=O)[nH]c(N)nc54)[C@H](O)[C@@H]3OP(=O)(O)OC[C@H]3O[C@@H](n4cnc5c(=O)[nH]c(N)nc54)[C@H](O)[C@@H]3O)[C@@H](O)[C@H]2O)c2nc(N)nc(O)c21	IFIT1	binding, microscale thermophoresis		pH 7.5, 70 nt capped RNA	0.33 µM
Cc1ncc(CNc2nc(N3CC(CCOc4cc(-c5scnc5C)ccc4CNC(=O)[C@@H]4C[C@@H](O)CN4C(=O)[C@@H](NC(=O)C4(F)CC4)C(C)(C)C)C3)nc(N3CCC[C@H]3Cn3ccnn3)n2)c(N)n1	VHL with elongin B/C	binary binding, SPR			0.011 µM
CCc1nc2cc3ccccc3cc2cc1C(=O)N[C@@H](CCCCN)C(=O)N[C@@H](C/C=C\C[C@H](NC(=O)[C@H](CCCCN)NC(=O)c1cc2cc3ccccc3cc2nc1CC)C(=O)N1CCC[C@H]1C(=O)NCCCN)C(=O)N1CCC[C@H]1C(=O)NCCCN	CUG–CAG duplex RNA	SPR			0.0878 µM
O=C(c1ccc([125I])cc1)N1CCC(n2cncc2-c2ccc(OS(=O)(=O)c3cccc4cnccc34)cc2)CC1	P2X purinoceptor 7 (P2RX7, Homo sapiens, UniProt Q99572)	binding, radioligand		cell membranes	0.00186 µM
Cn1ncc2cc(-c3cncc(Cl)c3N3CCC4(CCNC4=O)CC3)ccc21	Delta(3,5)-Delta(2,4)-dienoyl-CoA isomerase, mitochondrial (Homo sapiens, UniProt Q13011)	cell-free assay		lysate	14.8 µM
CCc1nc2cc3ccccc3cc2cc1C(=O)N1CCC[C@H]1C(=O)N[C@@H](C/C=C\C[C@H](NC(=O)[C@@H]1CCCN1C(=O)c1cc2cc3ccccc3cc2nc1CC)C(=O)N[C@@H](CCCCN)C(=O)NCCCN)C(=O)N[C@@H](CCCCN)C(=O)NCCCN	CUG–CAG duplex RNA	SPR			0.078 µM
COc1ccc2nc(-c3ccc(N(C)C)cc3)sc2c1	Alpha-synuclein, fibril (SNCA, Homo sapiens, UniProt P37840)	binding, SPR			0.33 µM
CNc1ncnc2c1ncn2[C@@H]1O[C@H](COP(=O)(O)OP(=O)([O-])OP(=O)(O)OC[C@H]2O[C@@H](n3c[n+](C)c4c(O)nc(N)nc43)[C@H](O)[C@@H]2O)[C@@H](OP(=O)(O)OC[C@H]2O[C@@H](n3cnc4c(=O)[nH]c(N)nc43)[C@H](O)[C@@H]2O)[C@H]1OC	IFIT1	binding, microscale thermophoresis		pH 7.5	3800 µM
O=C(O)[C@H]1O[C@@H](O[C@H]2[C@H](O)[C@H](O)[C@H](O[C@H]3[C@H](O)[C@H](O)[C@H](O)O[C@@H]3C(=O)O)O[C@H]2C(=O)O)[C@@H](O)[C@@H](O)[C@@H]1O[C@@H]1O[C@@H](C(=O)O)[C@@H](O)[C@H](O)[C@@H]1O	Beta-lactoglobulin (LGB, Bos taurus, UniProt P02754, A134V/G80D)	isothermal titration calorimetry		pH 4.00, 37 °C, 50 mM KH2PO4	222 µM
Cc1cccc2c1N(C(=O)n1ccnn1)CC2	KAI2 (Arabidopsis thaliana, UniProt Q9SZU7, L142A)	ITC		L142A mutant	11.6 µM and 10.3 µM and 9.26 µM
C[n+]1cn([C@@H]2O[C@H](COP(=O)(O)OP(=O)([O-])OP(=O)(O)OC[C@H]3O[C@@H](n4ccc(N)nc4=O)[C@H](O)[C@@H]3OP(=O)(O)OC[C@H]3O[C@@H](n4cnc5c(=O)[nH]c(N)nc54)[C@H](O)[C@@H]3O)[C@@H](O)[C@H]2O)c2nc(N)nc(O)c21	IFIT1	binding, microscale thermophoresis		pH 7.5, 70 nt capped RNA	0.23 µM
CC(=O)c1cnc2ccc(-c3cc(Cl)c(O)c(Cl)c3)nc2c1N[C@H]1CC[C@H](CN(C)C)CC1	Receptor-like protein kinase FERONIA (FER, Arabidopsis thaliana, UniProt Q9SCZ4, Y612A)	binding, SPR		mutant protein	> 100 µM
Nc1nc2c(ncn2[C@@H]2O[C@H](COP(=O)(O)O[C@H]3[C@@H](O)[C@H](n4cnc5c(N)ncnc54)O[C@@H]3COP(=O)(O)OP(=O)(O)OP(=O)(O)OC[C@H]3O[C@@H](n4cnc5c(=O)[nH]c(N)nc54)[C@H](O)[C@@H]3O)[C@@H](O)[C@H]2O)c(=O)[nH]1	IFIT1	binding, microscale thermophoresis		pH 7.5	3700 µM
CC(=O)NCCN(c1nc(N2CC(Oc3ccccc3)C2)nc(N2CC3C(CCOc4cc(-c5scnc5C)ccc4CNC(=O)[C@@H]4C[C@@H](O)CN4C(=O)[C@@H](NC(=O)C4(F)CC4)C(C)(C)C)C3C2)n1)C(C)C (stereo partly drawn)	VHL with elongin B/C	binary binding, SPR			0.437 µM
C[n+]1cn([C@@H]2O[C@H](COP(=O)(O)OP(=O)([O-])OP(=O)(O)OC[C@H]3O[C@@H](n4cnc5c(N)ncnc54)[C@H](O)[C@@H]3OP(=O)(O)OC[C@H]3O[C@@H](n4cnc5c(=O)[nH]c(N)nc54)[C@H](O)[C@@H]3O)[C@@H](O)[C@H]2O)c2nc(N)nc(O)c21	IFIT1	microscale thermophoresis		pH 7.5, with: structured cap III RNA, 70 nt	0.1 µM
CCN(CC)Cc1cn(Cc2ccc(C(=O)N[C@@H]3CCc4c(C#N)cccc43)cc2)nn1	WD repeat-containing protein 91 (Homo sapiens, UniProt A4D1P6)	binding, SPR			2.7 µM
CO[C@@H]1[C@H](OP(=O)(O)OC[C@H]2O[C@@H](n3cnc4c(=O)[nH]c(N)nc43)[C@H](O)[C@@H]2O)[C@@H](COP(=O)(O)OP(=O)([O-])OP(=O)(O)OC[C@H]2O[C@@H](n3c[n+](C)c4c(O)nc(N)nc43)[C@H](O)[C@@H]2O)O[C@H]1n1cnc2c(N)ncnc21	IFIT1	microscale thermophoresis		pH 7.5, with: unstructured cap II RNA, 35 nt	0.06 µM
Cc1ncsc1-c1ccc(CNC(=O)[C@@H]2C[C@@H](O)CN2C(=O)[C@@H](NC(=O)C2(F)CC2)C(C)(C)C)c(OCCC2CCN(c3nc(N(C)CCNC(=O)C(C)C)nc(N4CCn5nnc(CO)c5C4)n3)CC2)c1	VHL with elongin B/C	binary binding, SPR			0.0092 µM

For quick reference, copied from above:
Compound	target	test	test system	conditions	Kd
COC(=O)CCCNC(=O)c1cc(S(N)(=O)=O)c(Cl)cc1NC1CCCCC1	CA7 (Homo sapiens, UniProt P43166)			pH 7	4 µM
CNc1ncnc2c1ncn2[C@@H]1O[C@H](COP(=O)(O)OP(=O)([O-])OP(=O)(O)OC[C@H]2O[C@@H](n3c[n+](C)c4c(O)nc(N)nc43)[C@H](O)[C@@H]2O)[C@@H](OP(=O)(O)OC[C@H]2O[C@@H](n3cnc4c(=O)[nH]c(N)nc43)[C@H](O)[C@@H]2O)[C@H]1O	IFIT1	binding, microscale thermophoresis		pH 7.5	50 µM
NCCCC[C@H](NC(=O)[C@H](C/C=C\C[C@H](NC(=O)[C@@H]1CCCN1)C(=O)N[C@@H](CCCCN)C(=O)NCCCN)NC(=O)[C@@H]1CCCN1)C(=O)NCCCN	CUG–CAG duplex RNA	SPR			0.348 µM
C[n+]1cn([C@@H]2O[C@H](COP(=O)(O)OP(=O)([O-])OP(=O)(O)OC[C@H]3O[C@@H](n4cnc5c(=O)[nH]c(N)nc54)[C@H](O)[C@@H]3OP(=O)(O)OC[C@H]3O[C@@H](n4cnc5c(=O)[nH]c(N)nc54)[C@H](O)[C@@H]3O)[C@@H](O)[C@H]2O)c2nc(N)nc(O)c21	IFIT1	binding, microscale thermophoresis		pH 7.5, 70 nt capped RNA	0.33 µM
